Published values gathered from unrelated publications.
“And” joins repeats or separate records; there may be more than shown. Numbers after ± are the reported error.
Lysophospholipase-like protein 1: Lysophospholipase-like protein 1 (Mus musculus, UniProt Q3UFF7)
CASP4: Caspase-4 (CASP4, Homo sapiens, UniProt P49662)

O=C1CC(c2ccoc2)c2ccc(NC(=O)c3ccccc3)cc2N1 (centres unmarked) — fractional activity at saturation (Aromatase (CYP19A1, Homo sapiens, UniProt P11511); enzyme activity, inhibitor; concentration not given, with: MFC substrate): ≤ 0.524
O=C(Nc1ccc(C2CCCCC2)cc1)C1(N2CCOCC2)CC1 — hepatic clearance (liver microsome stability; rat liver microsomes; 1 µM): 52 mL/min/kg
CN(C)CCCSC(=S)N1CCN(C(=O)/C=C/c2coc3ccccc3c2=O)CC1 — normalised MST response (Nucleoprotein (N, Tomato spotted wilt virus, UniProt P25999); binding, microscale thermophoresis; 1.953 µM; dose series): -0.00196
CCCCCC=CC=C1C(=O)C=CC1CC=CCCCC(=O)O (centres unmarked) — isoTOP-ABPP competition ratio (Adenosine kinase (ADK, Homo sapiens, UniProt P55263); competitive isoTOP-ABPP; proteome, soluble, MDA-MB-231; 100 µM, with: iodoacetamide probe; baseline: DMSO over compound-treated, higher = stronger cysteine blockade): 1.2
Nc1nc(SCc2ccc(Cl)cc2)nn1S(=O)(=O)c1ccc(-c2ccccc2)s1 — probe labeling increase (Lysophospholipase-like protein 1; enzyme activity, activator, gel-based ABPP; purified protein; concentration not given, with: FP-rhodamine; baseline: DMSO): 1.6 fold
CCCC[C@H](NC(C)=O)C(=O)N[C@@H](CCC(=O)O)C(=O)N[C@@H](CO)C(=O)N[C@@H](CC(=O)O)C(=O)COC(=O)c1c(C)cccc1C — kinact/KI (CASP4; enzyme activity, inhibitor): 60200 M⁻¹ s⁻¹
CC(C)(C)c1ccc(NC(=O)c2cnn(-c3ccc([N+](=O)[O-])cc3)c2C(F)(F)F)cc1 — selectivity ratio (Prostaglandin G/H synthase 2 (PTGS2, Homo sapiens, UniProt P35354); enzyme activity, inhibitor; baseline: COX-1 IC50 over COX-2 IC50): 0.73
C#CCCCCNC(=O)c1ccc(N(C(=O)C=C)c2ccc(Br)cc2)cc1 — reactivity ratio (Putative protein-lysine deacylase ABHD14B (Homo sapiens, UniProt Q96IU4); mass spectrometry profiling, measured: ABHD14B; H460 cell lysate; 100 µM over 10 µM, UniProt Q96IU4; baseline: high over low concentration): 1.85
CCCCCC(O)/C=C/C=O (centres unmarked) — isoTOP-ABPP competition ratio (Pseudouridylate synthase RPUSD2 (RPUSD2, Homo sapiens, UniProt Q8IZ73); competitive isoTOP-ABPP; Ramos soluble proteome; 100 µM, 60 min, with: iodoacetamide probe; baseline: DMSO over compound-treated, higher = stronger cysteine blockade): 1.5
CC(=O)N[C@@H](CCC(C)C)C(=O)N[C@@H](CCC(=O)O)C(=O)N[C@@H](C)C(=O)N[C@@H](CC(=O)O)C(=O)COC(=O)c1c(C)cccc1C — kinact/KI (CASP4; enzyme activity, inhibitor): 66800 M⁻¹ s⁻¹
CC1(C)C[C@@H](Nc2cccc(-c3sc(C(=O)O)c(OCC(=O)O)c3Cl)c2)CCN1S(=O)(=O)Cc1cccc(NC(=O)CN2CCC(c3ccc4c(c3)oc(=O)n4C3CCC(=O)NC3=O)CC2)c1 (some centres unmarked) — BLI binding response (Tyrosine-protein phosphatase non-receptor type 2 (PTPN2, Homo sapiens, UniProt P17706, E41K/R35E/R43E); degrader, bio-layer interferometry; 1000 nM; higher = more binding): 0.911 a.u.
O=C1C[C@H](c2nc(-c3ccc(F)c4cn[nH]c34)no2)CCCN1c1ccc(F)cc1 (racemic) — cAMP inhibition (Cannabinoid receptor 2 (CNR2, Homo sapiens, UniProt P34972); agonist, GloSensor cAMP; CHO expressing CB2; 10 pM): 13.1% and 7.43% and 0%
CC(=O)N[C@@H](CC(=O)O)C(=O)N[C@@H](CC(C)C)C(=O)N[C@H](C(=O)N[C@@H](C)C(=O)N[C@@H](CC(=O)O)C(=O)COC(=O)c1c(C)cccc1C)[C@@H](C)O — kinact/KI (CASP4; enzyme activity, inhibitor): 5400 M⁻¹ s⁻¹
Fc1ccc(Nc2nc(NC3CCCCC3)c3cc(C(F)(F)F)ccc3n2)cc1F — maximal inhibition (Beta-2 adrenergic receptor (ADRB2, Homo sapiens, UniProt P07550, N148A); β-arrestin2 recruitment, antagonist, BRET; mutant N148A; baseline: isoprenaline maximal response): 1.9%
COc1cc(OC)cc(C2C(C#N)=C(N)Nc3oc(C)nc32)c1 (centres unmarked) — inhibition (Ubiquitin carboxyl-terminal hydrolase 5 (USP5, Homo sapiens, UniProt P45974); enzyme activity, inhibitor; 17 µM): 10%
CC1CCCc2c(N)nc(N)nc21 (centres unmarked) — koff from excited state (Dihydrofolate reductase (folA, Escherichia coli, UniProt P0ABQ4); conformational gating model): 18.7 s⁻¹
C=C(NC(=O)c1csc(-c2nc3c(cc2O)-c2nc(cs2)C(=O)NC(C(C)O)C(=O)NC(=C(C)OC)c2nc(cs2)C(=O)NC2c4nc(cs4)C(=O)NC(COC(=O)c4c5c6c(cccc6n4O)COC(=O)C(OC4CC(C)(O)C(N(C)C)C(C)O4)C2OC5)c2nc-3cs2)n1)C(N)=O (centres unmarked) — AUC(0-inf) (male cynomolgus monkey, plasma; intravenous, 1 mg/kg, single dose, infusion): 8610 ng·h/mL
CC[C@H](C)[C@H](NC(=O)[C@H](CC(=O)O)NC(C)=O)C(=O)N[C@@H](Cc1ccccc1)C(=O)N[C@@H](Cc1ccccc1)C(=O)N[C@@H](CCCNC(=N)N)C(=O)N[C@@H](Cc1ccc(O)cc1)C(=O)N[C@@H](CC(N)=O)C(=O)NCC(=O)N[C@@H](CCCCN)C(=O)N[C@H](C(=O)N[C@@H](Cc1c[nH]c2ccccc12)C(=O)N[C@@H](Cc1c[nH]c2ccccc12)C(=O)N[C@@H](CCCNC(=N)N)C(=O)O)C(C)C — entropy change (Insulin (INS, Bos taurus, UniProt P01317); binding, isothermal titration calorimetry; concentration not given, pH 2.6, 25 °C): -93.9 cal/mol/K
CN(/N=C/c1ccc(F)cc1C(=O)NO)c1nc(-c2ccccc2Cl)cs1 — percent effect (Dihydroorotate dehydrogenase (quinone), mitochondrial (DHODH, Homo sapiens, UniProt Q02127); enzyme activity, inhibitor, DCIP colorimetric; 370.37 nM): 4.26% and 4.32% and 3.2%
CC(=O)N[C@@H](CC(C)C)C(=O)N[C@H](C(=O)N[C@@H](C)C(=O)N[C@@H](CC(=O)O)C(=O)COC(=O)c1c(C)cccc1C)C(C)(C)C — kinact/KI (CASP4; enzyme activity, inhibitor): 66800 M⁻¹ s⁻¹
COc1ccc(C(=O)c2c(C(=O)NCCCN(C)C)oc3ccc(Cl)cc3c2=O)cc1OC — Emax (net BRET) (Growth hormone secretagogue receptor type 1 (GHSR, Homo sapiens, UniProt Q92847); endosomal trafficking, agonist, bystander BRET 2xFYVE-Venus; 45 min, unit not given; baseline: baseline): 0.041 ± 0.007
CC(=O)N[C@H](C(=O)N[C@@H](CCCCN)C(=O)N[C@@H](CCC(N)=O)C(=O)N[C@@H](CC(=O)O)C(=O)COC(=O)c1c(C)cccc1C)C(C)C — kinact/KI (Caspase-9 (CASP9, Homo sapiens, UniProt P55211); enzyme activity, inhibitor): 14600 M⁻¹ s⁻¹
CC(C)[C@@H]1NC(=O)[C@H](Cc2ccccc2)NC(=O)CSC[C@@H](C(N)=O)NC(=O)[C@H](CCC(=O)O)NC(=O)[C@H](CO)NC(=O)[C@H](Cc2c[nH]c3cccc(Cl)c23)NC(=O)[C@H](C2CCCCC2)NC(=O)[C@H](C(C)C)NC(=O)[C@H](Cc2ccc(O)cc2)NC(=O)[C@H](CC(=O)O)NC(=O)[C@H](Cc2c[nH]c3ccccc23)NC(=O)[C@H](Cc2ccc(N)nc2)NC(=O)[C@H](Cc2c[nH]c3ccc(Cl)cc23)NC(=O)[C@H](CCC(=O)O)NC1=O — remaining activity (Interleukin-1 receptor-like 2 (IL1RL2, Homo sapiens, UniProt Q9HB29); reporter gene (SEAP), inhibitor, HEK-Blue IL-36R reporter; HEK-Blue IL-36R cells; 3.7 µM, 6 h, with: IL-36γ 0.3 ng/mL): 1.8%
Nc1nc(NCc2ccc(Cl)cc2)nn1S(=O)(=O)C1CCCCC1 — probe labeling increase (Lysophospholipase-like protein 1; enzyme activity, activator, gel-based ABPP; purified protein; concentration not given, with: FP-rhodamine; baseline: DMSO): 1 fold
C=CC(=O)N1[C@H](c2ccc3c(c2)OCO3)c2[nH]c3ccccc3c2C[C@H]1C(=O)N1CCOCC1 — Pearson correlation (Hepatocyte nuclear factor 3-alpha (FOXA1, Homo sapiens, UniProt P55317, C258A); chromatin binding, ChIP-seq; 22Rv1 expressing PHF5A Y36C and FOXA1 C258A; 20 µM, 3 h, unit not given; baseline: DMSO): 0.84
O=C(N1CCCC1)n1cc(-c2ccc(-c3ccccc3)cc2)nn1 — SILAC activity ratio (Dipeptidyl peptidase 9 (Dpp9, Mus musculus, UniProt Q8BVG4); probe labelling, inhibitor, competitive ABPP-SILAC, measured: Dpp9; mouse T cells; concentration not given, 4 h, protein level; baseline: treated over DMSO cells, lower = stronger inhibition): 1.32
CC(=O)N[C@@H](Cc1ccc(O)cc1)C(=O)N1CSC[C@H]1C(=O)N[C@@H](C)C(=O)N[C@@H](CC(=O)O)C(=O)COC(=O)c1c(C)cccc1C — kinact/KI (CASP4; enzyme activity, inhibitor): 900 M⁻¹ s⁻¹
C=CC(=O)N1CCCC(n2c(=O)c3ncccc3n(Cc3ccc(Oc4ccccc4)cc3)c2=O)C1 (centres unmarked) — melting temperature (ATP synthase F(1) complex subunit beta, mitochondrial (ATP5F1B, Homo sapiens, UniProt P06576); thermal proteome profiling; cell proteome; treated): 42.4 °C and 46.9 °C
CC(=O)Nc1ccc(C2CCCCC2)cc1 — hepatic clearance (liver microsome stability; human liver microsomes; 1 µM, without NADPH): 18 mL/min/kg
CC[C@H](C)[C@H](NC(=O)[C@H](Cc1ccccc1)NC(=O)[C@H](CCC(=O)O)NC(=O)[C@H](CCCCN)NC(=O)[C@H](C)NC(=O)[C@H](C)NC(=O)[C@H](CCC(N)=O)NC(=O)CNC(=O)[C@H](CCC(=O)O)NC(=O)[C@H](CC(C)C)NC(=O)[C@H](Cc1ccc(O)cc1)NC(=O)[C@H]1CNC[C@@H]1NC(=O)[C@H](CO)NC(=O)C(C)(C)NC(=O)[C@H](CC(=O)O)NC(=O)[C@H](CO)NC(=O)[C@@H](NC(=O)[C@H](Cc1ccccc1)NC(=O)[C@@H](NC(=O)CNC(=O)[C@H](CCC(=O)O)NC(=O)[C@H](C)NC(=O)[C@@H](N)Cc1c[nH]cn1)[C@@H](C)O)[C@@H](C)O)C(=O)N[C@@H](C)C(=O)N[C@@H](Cc1c[nH]c2ccccc12)C(=O)N[C@@H](CC(C)C)C(=O)N[C@H](C(=O)N[C@@H](CCCCN)C(=O)NCC(=O)N[C@@H](CCCNC(=N)N)C(N)=O)C(C)C — efficacy (Glucagon-like peptide 1 receptor (GLP1R, Homo sapiens, UniProt P43220); β-arrestin-1 recruitment, agonist, BRET; baseline: GLP-1): 48 ± 2%
CC(=O)N[C@@H](Cc1ccc(I)cc1)C(=O)N[C@@H](CCC(=O)O)C(=O)N[C@H](C(=O)N[C@@H](CC(=O)O)C(=O)COC(=O)c1c(C)cccc1C)[C@@H](C)O — kinact/KI (CASP4; enzyme activity, inhibitor): 50000 M⁻¹ s⁻¹
Cc1ccc(-c2c(/C=C(\C#N)C(=O)NC(C)C)n(CCCO)c3ncnc(N)c23)cc1 — remaining binding (Epidermal growth factor receptor (EGFR, Homo sapiens, UniProt P00533, L858R/T790M); cell-free assay, competition with immobilised ligand; 1 µM): 95%

Some of these lines once more:
COc1ccc(C(=O)c2c(C(=O)NCCCN(C)C)oc3ccc(Cl)cc3c2=O)cc1OC — Emax (net BRET) (Growth hormone secretagogue receptor type 1 (GHSR, Homo sapiens, UniProt Q92847); endosomal trafficking, agonist, bystander BRET 2xFYVE-Venus; 45 min, unit not given; baseline: baseline): 0.041 ± 0.007
CC(=O)N[C@H](C(=O)N[C@@H](CCCCN)C(=O)N[C@@H](CCC(N)=O)C(=O)N[C@@H](CC(=O)O)C(=O)COC(=O)c1c(C)cccc1C)C(C)C — kinact/KI (Caspase-9 (CASP9, Homo sapiens, UniProt P55211); enzyme activity, inhibitor): 14600 M⁻¹ s⁻¹
CC(C)[C@@H]1NC(=O)[C@H](Cc2ccccc2)NC(=O)CSC[C@@H](C(N)=O)NC(=O)[C@H](CCC(=O)O)NC(=O)[C@H](CO)NC(=O)[C@H](Cc2c[nH]c3cccc(Cl)c23)NC(=O)[C@H](C2CCCCC2)NC(=O)[C@H](C(C)C)NC(=O)[C@H](Cc2ccc(O)cc2)NC(=O)[C@H](CC(=O)O)NC(=O)[C@H](Cc2c[nH]c3ccccc23)NC(=O)[C@H](Cc2ccc(N)nc2)NC(=O)[C@H](Cc2c[nH]c3ccc(Cl)cc23)NC(=O)[C@H](CCC(=O)O)NC1=O — remaining activity (Interleukin-1 receptor-like 2 (IL1RL2, Homo sapiens, UniProt Q9HB29); reporter gene (SEAP), inhibitor, HEK-Blue IL-36R reporter; HEK-Blue IL-36R cells; 3.7 µM, 6 h, with: IL-36γ 0.3 ng/mL): 1.8%
Nc1nc(NCc2ccc(Cl)cc2)nn1S(=O)(=O)C1CCCCC1 — probe labeling increase (Lysophospholipase-like protein 1; enzyme activity, activator, gel-based ABPP; purified protein; concentration not given, with: FP-rhodamine; baseline: DMSO): 1 fold
C=CC(=O)N1[C@H](c2ccc3c(c2)OCO3)c2[nH]c3ccccc3c2C[C@H]1C(=O)N1CCOCC1 — Pearson correlation (Hepatocyte nuclear factor 3-alpha (FOXA1, Homo sapiens, UniProt P55317, C258A); chromatin binding, ChIP-seq; 22Rv1 expressing PHF5A Y36C and FOXA1 C258A; 20 µM, 3 h, unit not given; baseline: DMSO): 0.84
